Results pooled from the literature.
Each line is one published result; not all experiments were run side by side.
Sample: plasma

Compound	system	conditions	endpoint	value
COc1cc(-c2cc(=O)c3ccc(OCCCn4c(Cl)nc5ccccc54)cc3o2)cc(OC)c1OC	male Sprague-Dawley rat	intravenous, 10 mg/kg	MRT(0-inf)	3.7 h
Cc1cc2c(cc1O)C=C1C=CC(=O)C(C)(C)[C@H]1CC2	male Sprague-Dawley rat	oral, 20 mg/kg	MRT(0-inf)	12.4 h
CCC(CC)n1c(Cc2ccco2)nc2cc(C(=O)N[C@@H](CC(=O)O)c3ccccc3)ccc21	male Sprague-Dawley rat	intraperitoneal, 10 mg/kg	MRT(0-t)	2.24 h
O=c1c(-c2ccc(Cl)c(CN3CCOCC3)c2)coc2cc(O)ccc12	male Sprague-Dawley rat	oral, 10 mg/kg	MRT	2.48 h
CC(C)(C)C(=O)Nc1ccc2[nH]c(CN3CCC(N(CCCN4CCOCC4)CC4OC(n5cnc6c(N)ncnc65)C(O)C4O)CC3)nc2c1 (centres unmarked)	male Sprague-Dawley rat	intraperitoneal, 20 mg/kg	MRT(0-t)	1.42 h
Cc1cc(/C=C/C#N)cc(C)c1Oc1nc(NC2CCN(Cc3ccc(S(C)(=O)=O)cc3)CC2)nc2ncccc12	Sprague-Dawley rat	oral, 20 mg/kg	MRT(0-t)	3.37 h
CCC(CC)n1c(Cc2cccs2)nc2cc(C(=O)N[C@@H](CC(=O)O)c3ccccc3)ccc21	male Sprague-Dawley rat	intraperitoneal, 10 mg/kg	MRT(0-inf)	2.45 h
OC1(C(F)(F)F)CCN(c2nc(Nc3ccnc(C(F)(F)F)c3)nc(-c3cccc(C(F)(F)F)n3)n2)C1 (centres unmarked)	Sprague-Dawley rat	oral, 10 mg/kg	MRT(0-inf)	24.7 h
CCCCC(=O)Nc1ccc(-c2ccc3ncn(CCC)c(=O)c3c2)cn1	male rat	oral, 10 mg/kg	MRT	1.09 h
C[C@@H](CO)NC(=O)c1cc(-c2ccc(Cl)cc2)nn(-c2cnn(C)c2)c1=O	male Wistar rat	intravenous	MRT	4.7 h
CC1(C)C(NC(=O)C(=NOC2(C(=O)O)CCC2)c2csc(N)n2)C(=O)N1OS(=O)(=O)O (centres unmarked)	rat	intravenous, 10 mg/kg, single dose	MRT	0.27 h

Repeated from above:
Compound	system	conditions	endpoint	value
CCC(CC)n1c(Cc2cccs2)nc2cc(C(=O)N[C@@H](CC(=O)O)c3ccccc3)ccc21	male Sprague-Dawley rat	intraperitoneal, 10 mg/kg	MRT(0-inf)	2.45 h
